# Experimental data pooled from the literature.
# A part holds a random share of what one study measured.
# UniProt Q8N752, sequence (whole entry, looked up): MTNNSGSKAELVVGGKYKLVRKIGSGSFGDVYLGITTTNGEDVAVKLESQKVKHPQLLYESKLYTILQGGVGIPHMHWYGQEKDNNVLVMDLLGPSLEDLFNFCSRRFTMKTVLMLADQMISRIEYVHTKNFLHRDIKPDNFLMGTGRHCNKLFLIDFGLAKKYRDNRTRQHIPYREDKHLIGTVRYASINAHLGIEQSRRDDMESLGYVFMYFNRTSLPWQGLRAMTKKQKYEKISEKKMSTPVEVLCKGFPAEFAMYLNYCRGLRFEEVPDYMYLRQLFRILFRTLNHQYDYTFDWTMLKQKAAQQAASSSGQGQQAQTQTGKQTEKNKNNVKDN
# UniProt O00444, sequence (whole entry, looked up): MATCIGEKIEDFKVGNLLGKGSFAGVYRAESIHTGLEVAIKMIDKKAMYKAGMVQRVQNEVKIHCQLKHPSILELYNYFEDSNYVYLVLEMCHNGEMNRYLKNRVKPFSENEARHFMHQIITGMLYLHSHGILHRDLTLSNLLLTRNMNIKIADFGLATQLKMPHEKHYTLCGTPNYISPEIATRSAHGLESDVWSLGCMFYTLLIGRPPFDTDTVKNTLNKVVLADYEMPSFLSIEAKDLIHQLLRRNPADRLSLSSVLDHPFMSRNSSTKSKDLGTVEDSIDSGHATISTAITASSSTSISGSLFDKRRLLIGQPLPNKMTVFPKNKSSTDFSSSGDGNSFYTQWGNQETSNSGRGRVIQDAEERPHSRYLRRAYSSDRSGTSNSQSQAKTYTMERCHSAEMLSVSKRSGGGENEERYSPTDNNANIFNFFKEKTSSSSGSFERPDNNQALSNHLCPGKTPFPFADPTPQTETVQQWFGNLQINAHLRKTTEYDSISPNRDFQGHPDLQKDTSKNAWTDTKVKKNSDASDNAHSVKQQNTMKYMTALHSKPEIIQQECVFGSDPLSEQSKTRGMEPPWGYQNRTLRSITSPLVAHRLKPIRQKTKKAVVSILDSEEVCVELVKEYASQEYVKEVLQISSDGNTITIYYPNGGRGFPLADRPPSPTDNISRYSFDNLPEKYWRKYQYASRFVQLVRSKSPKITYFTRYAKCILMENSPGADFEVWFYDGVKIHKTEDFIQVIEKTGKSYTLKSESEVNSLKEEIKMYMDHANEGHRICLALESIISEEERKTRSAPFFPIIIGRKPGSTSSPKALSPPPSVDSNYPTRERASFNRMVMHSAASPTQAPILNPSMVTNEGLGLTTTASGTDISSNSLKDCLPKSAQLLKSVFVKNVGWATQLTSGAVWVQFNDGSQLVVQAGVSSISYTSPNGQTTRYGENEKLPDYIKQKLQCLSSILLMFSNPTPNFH
# UniProt Q9UIK4, sequence (whole entry, looked up): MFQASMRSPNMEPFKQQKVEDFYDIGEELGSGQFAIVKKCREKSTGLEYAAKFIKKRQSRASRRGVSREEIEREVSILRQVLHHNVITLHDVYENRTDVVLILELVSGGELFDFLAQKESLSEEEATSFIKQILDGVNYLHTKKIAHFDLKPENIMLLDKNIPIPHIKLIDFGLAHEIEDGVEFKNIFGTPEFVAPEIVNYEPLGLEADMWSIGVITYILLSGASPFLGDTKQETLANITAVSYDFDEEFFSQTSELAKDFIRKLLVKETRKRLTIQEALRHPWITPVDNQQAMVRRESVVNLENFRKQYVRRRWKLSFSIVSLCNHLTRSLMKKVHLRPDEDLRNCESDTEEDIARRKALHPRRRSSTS
# UniProt Q15375, sequence (whole entry, looked up): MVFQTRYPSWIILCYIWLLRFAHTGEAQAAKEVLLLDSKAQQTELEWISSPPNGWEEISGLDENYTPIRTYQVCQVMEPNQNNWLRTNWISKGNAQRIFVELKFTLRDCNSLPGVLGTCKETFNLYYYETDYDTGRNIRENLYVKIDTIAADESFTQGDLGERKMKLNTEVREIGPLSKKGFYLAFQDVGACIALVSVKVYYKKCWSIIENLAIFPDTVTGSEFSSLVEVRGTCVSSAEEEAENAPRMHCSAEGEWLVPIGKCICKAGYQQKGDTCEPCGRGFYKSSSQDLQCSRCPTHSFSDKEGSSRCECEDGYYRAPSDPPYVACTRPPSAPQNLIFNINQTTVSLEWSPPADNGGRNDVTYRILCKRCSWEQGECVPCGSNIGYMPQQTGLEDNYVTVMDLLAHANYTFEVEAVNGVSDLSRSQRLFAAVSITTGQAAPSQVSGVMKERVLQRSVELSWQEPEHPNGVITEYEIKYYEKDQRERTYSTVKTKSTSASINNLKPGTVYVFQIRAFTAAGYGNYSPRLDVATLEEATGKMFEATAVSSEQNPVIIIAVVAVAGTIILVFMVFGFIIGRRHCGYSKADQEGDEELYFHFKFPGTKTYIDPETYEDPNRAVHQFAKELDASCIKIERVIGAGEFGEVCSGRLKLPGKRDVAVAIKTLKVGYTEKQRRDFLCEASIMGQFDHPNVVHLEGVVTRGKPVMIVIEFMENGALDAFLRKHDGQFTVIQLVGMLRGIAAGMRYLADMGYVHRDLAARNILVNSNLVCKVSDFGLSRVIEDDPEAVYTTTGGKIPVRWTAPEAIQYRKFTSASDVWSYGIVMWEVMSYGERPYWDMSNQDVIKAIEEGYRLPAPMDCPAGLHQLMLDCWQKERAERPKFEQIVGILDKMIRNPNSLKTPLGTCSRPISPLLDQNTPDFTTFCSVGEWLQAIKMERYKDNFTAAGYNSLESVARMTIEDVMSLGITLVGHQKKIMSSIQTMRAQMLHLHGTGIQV
# UniProt P23443, sequence (whole entry, looked up): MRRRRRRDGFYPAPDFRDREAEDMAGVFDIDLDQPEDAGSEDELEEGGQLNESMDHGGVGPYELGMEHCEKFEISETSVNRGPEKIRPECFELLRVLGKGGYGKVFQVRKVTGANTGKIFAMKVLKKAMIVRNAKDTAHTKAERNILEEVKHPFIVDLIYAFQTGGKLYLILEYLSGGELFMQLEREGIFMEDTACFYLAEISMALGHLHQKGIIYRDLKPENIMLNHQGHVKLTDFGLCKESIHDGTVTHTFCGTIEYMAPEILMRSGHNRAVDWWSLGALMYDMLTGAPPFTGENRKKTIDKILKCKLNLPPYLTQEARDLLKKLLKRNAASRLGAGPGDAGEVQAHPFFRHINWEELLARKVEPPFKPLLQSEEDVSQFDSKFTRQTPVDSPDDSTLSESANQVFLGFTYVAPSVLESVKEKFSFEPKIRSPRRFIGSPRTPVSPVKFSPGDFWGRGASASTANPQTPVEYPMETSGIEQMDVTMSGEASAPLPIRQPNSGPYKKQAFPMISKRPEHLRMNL
# UniProt O75460, sequence (whole entry, looked up): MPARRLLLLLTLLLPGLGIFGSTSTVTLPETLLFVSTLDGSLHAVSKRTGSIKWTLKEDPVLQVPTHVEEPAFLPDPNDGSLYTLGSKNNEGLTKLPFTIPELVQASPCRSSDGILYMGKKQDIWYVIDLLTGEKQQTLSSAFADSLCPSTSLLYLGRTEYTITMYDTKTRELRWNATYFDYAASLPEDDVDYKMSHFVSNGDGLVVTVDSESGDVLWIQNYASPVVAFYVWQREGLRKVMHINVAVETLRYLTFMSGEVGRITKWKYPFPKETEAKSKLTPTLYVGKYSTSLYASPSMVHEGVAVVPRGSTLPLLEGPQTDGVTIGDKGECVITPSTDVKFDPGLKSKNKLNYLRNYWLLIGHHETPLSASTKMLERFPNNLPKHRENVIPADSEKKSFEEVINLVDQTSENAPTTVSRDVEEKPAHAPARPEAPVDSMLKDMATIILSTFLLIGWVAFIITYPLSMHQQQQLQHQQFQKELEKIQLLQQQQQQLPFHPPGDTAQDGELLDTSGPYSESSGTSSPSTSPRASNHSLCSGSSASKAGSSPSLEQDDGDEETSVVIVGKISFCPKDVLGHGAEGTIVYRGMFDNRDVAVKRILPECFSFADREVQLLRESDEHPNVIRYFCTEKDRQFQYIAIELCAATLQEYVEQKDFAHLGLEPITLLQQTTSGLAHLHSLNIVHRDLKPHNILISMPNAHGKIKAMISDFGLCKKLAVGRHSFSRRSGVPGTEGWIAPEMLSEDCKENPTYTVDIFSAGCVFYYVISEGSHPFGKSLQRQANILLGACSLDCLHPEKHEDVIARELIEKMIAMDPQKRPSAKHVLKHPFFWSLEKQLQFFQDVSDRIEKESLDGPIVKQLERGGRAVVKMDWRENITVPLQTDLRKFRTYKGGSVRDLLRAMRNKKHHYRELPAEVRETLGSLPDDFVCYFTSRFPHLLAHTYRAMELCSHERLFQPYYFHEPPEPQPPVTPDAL

# Block 1
# Structure (SMILES): C[C@@H]1CN(c2cc(-c3n[nH]c4ccc(OC5(C)CC5)cc34)ncn2)C[C@H](C)O1
# Read-out: cell-free assay
# Technique: competition with immobilised ligand
# Tested at: 0.1 µM
target,remaining binding [%]
"Casein kinase I isoform alpha-like (CSNK1A1L, Homo sapiens, UniProt Q8N752)",100
"Epidermal growth factor receptor (EGFR, Homo sapiens, UniProt P00533, A750P/del747-749)",73
"Receptor-type tyrosine-protein kinase FLT3 (FLT3, Homo sapiens, UniProt P36888, D835V/ITD)",75
"Serine/threonine-protein kinase PLK4 (PLK4, Homo sapiens, UniProt O00444)",71
"Myosin light chain kinase 2, skeletal/cardiac muscle (MYLK2, Homo sapiens, UniProt Q9H1R3)",91
"Mast/stem cell growth factor receptor Kit (KIT, Homo sapiens, UniProt P10721, A829P)",62
"1-phosphatidylinositol 3-phosphate 5-kinase (PIKFYVE, Homo sapiens, UniProt Q9Y2I7)",90
"Proto-oncogene tyrosine-protein kinase receptor Ret (RET, Homo sapiens, UniProt P07949, M918T)",97
"Tyrosine-protein kinase Fgr (FGR, Homo sapiens, UniProt P09769)",89
"Ribosomal protein S6 kinase alpha-1, C-terminal kinase domain (RPS6KA1, Homo sapiens, UniProt Q15418)",93
"Epidermal growth factor receptor (EGFR, Homo sapiens, UniProt P00533, T790M)",100
"Serine/threonine-protein kinase Nek7 (NEK7, Homo sapiens, UniProt Q8TDX7)",100
"Platelet-derived growth factor receptor alpha (PDGFRA, Homo sapiens, UniProt P16234)",75
"Ephrin type-A receptor 7 (EPHA7, Homo sapiens, UniProt Q15375)",82
"Death-associated protein kinase 2 (DAPK2, Homo sapiens, UniProt Q9UIK4)",85
"Ribosomal protein S6 kinase beta-1 (RPS6KB1, Homo sapiens, UniProt P23443)",73
"Serine/threonine-protein kinase/endoribonuclease IRE1 (ERN1, Homo sapiens, UniProt O75460)",79
"Serine/threonine-protein kinase Nek10 (NEK10, Homo sapiens, UniProt Q6ZWH5)",69

# Block 2
# Target: RING finger protein unkempt homolog, zinc fingers 1-6, GST-SBP tag (UNK, Homo sapiens, UniProt Q9C0B0, residues 30-357)
# Technique: RNA Bind-n-Seq
# Molecule type: RNA
# Medium: in vitro
# Tested at: not given
# Setting: RNA with constant flanks, ends assumed
# Relative to: input RNA pool
# Reading: higher = stronger binding
# All sequences stand within: GGGAGUUCUACAGUCCGACGAUC … CAACAGAGGAUUGAGCAUCA
# Residues (chain): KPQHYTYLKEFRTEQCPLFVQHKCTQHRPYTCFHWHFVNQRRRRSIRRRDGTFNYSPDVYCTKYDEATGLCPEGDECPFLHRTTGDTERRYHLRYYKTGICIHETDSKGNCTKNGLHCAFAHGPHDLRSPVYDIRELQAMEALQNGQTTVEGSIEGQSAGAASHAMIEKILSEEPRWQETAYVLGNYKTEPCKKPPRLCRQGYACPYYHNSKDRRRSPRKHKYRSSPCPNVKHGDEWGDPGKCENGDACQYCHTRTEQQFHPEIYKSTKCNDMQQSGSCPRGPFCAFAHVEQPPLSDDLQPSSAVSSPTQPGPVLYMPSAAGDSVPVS
Oligonucleotide,bound/input enrichment [ratio]
CUUCAAUUUUUAAAAGGCAAAACAUUGUUCAAAGCUUAAAGUUUUGAGCUUGAAACACCGUUCCGAUUUAAACAGUUGUAUGGGAACACAUCCUCUGCUUUAUACAGUUGGAAGUCCUCC,0.131
AAUCUAAAACUUGCAACGGAACUCCCAGAUGCUGAACUUAGAAGGACUUUAUGGUCUUCCGCCGCUUUUCCCAAGCUCAAACGGCAAGUUUUGUUGUAUGACCCUCAAGUCAACUCACCC,0.19
UAAUAUUUUUGUGAACUGGUGUAAAUUGUUAAUGCAUAUAAGCUUGUGUAUUUUUGUAAACCGUUUUGUGAUUUACUUCUUGCCCCCUGUGUAAAUAUUUACAGUCUCAUUUCUUCCAAA,0.305
CGCGAACGCGAGCCCCGCCCUGCGCGCCUUCCCUCCUGCGCUCGCCGGCCUCUUCUGCCUCUCCGAACCUUCCUGCGGUCGUGCUUGCAUCUCGCUGCUGCAGCCUCCCGGGCUCCGGUC,0.237
CAUCUAUACAAUUUUAAAAAUACUUCCUCAUAGGAUGCUUUGGCCCUUCAUCUAUUUAAUCACCGCUACAUACCUAUUUUUUAUAAGUAGCAGUACACAUUCAAAGGGGUAUUCCUAGCU,6.8
AAGAUUGAUGACAUUCGUAAGCCUGGAGAAUCUGAAGAAUGAAGACAUUGAGAAAACUAUGCCGCAAGAUCCACUUCUGUGAUUAAGUAAAUGGAUGUCUCGUGAUGCAUCUACAGUUAU,0.223
CUGAAGCCCAUGUUGCAGCGGGACUUUAUCACUGCUUUACCAGAGCAAGGCUUAGAUCACACCGCAGAAAACAUUCUCUCCUACCUGGAUGCCAGGUCUCUGUGUGCAGCAGAGCUGGUG,0.0674
AACCCAAGUAUUUUUAUGUAAAAAGAUUUCAAUUUAGAAUACUUCAUUUUUGAGAUGGAGUUCCGAAUAUUUCAUUUUGAAAUGGAACGAAAGGGUUAGGUUUUGAUGUAAAAGACAGGA,1.03

# Block 3
# Target: RNA binding protein fox-1 homolog 2, RRM domain, GST-SBP tag (RBFOX2, Homo sapiens, UniProt O43251-10, residues 100-194)
# Technique: RNA Bind-n-Seq
# Molecule type: RNA
# Medium: in vitro
# Tested at: 365 nM
# Setting: natural RNA segment, single round, ends assumed
# Relative to: no-protein control
# Reading: higher = stronger binding
# All sequences stand within: GGGAGUUCUACAGUCCGACGAUC … UGGAAUUCUCGGGUGCCAA
# Construct (chain): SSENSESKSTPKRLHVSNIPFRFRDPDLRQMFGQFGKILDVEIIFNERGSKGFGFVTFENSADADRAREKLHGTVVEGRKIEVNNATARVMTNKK
Oligonucleotide,RBNS enrichment (R)
UAGGAUCCCAAGUGGCAAGAAAGCUCACAUUUUUUGAGUUCAAAUGCUACUGUCUAAGCGCAAAGUCCCUCAUCCUGAAGUAGACUAGAGCCCGGCCACAAAUUCUGAGG,0.385
GAAACCUUAUGGCUUAAAAUUCCUUAACUCCUUUUUGAUUCAUGUUUGUAGUCAUGUUGUCAACAGAGGCAAAGUUAAGCUUGAUGAUGGUUAAAAUCGGUUUGAUAGCA,2.01
UUGGAUGGCUUCUUUUGUCACCCUGAUCUCCUAUGUUACCAAUGUGUAUCGUCUCCUUCUCCCUAAAGUGUACUUAAUCUUUGCUUUCUUUGCACAAUGUCUUUGGUUGC,0.63
UCUGCAGGACCUUCUCUGUCCAGCGCCCCCUUUCUGUUGUGCGAUUAGUUGUAGCUGCCAUGCUCAGAAUUGCCUUUUGAGAGCUGAAGCAAGGUGCUUACUGUCACCUG,0.333
GUACAGCAGGUACAACCGCCUGACAGUCUCACAGGUUGUAUCCCACUCCUUACCUGUGGCCCCACCCAGCACAUCACUACGUGGAGGGGAAAGAGGCAGCUCCCACCUGG,0.496
AGGAAUGUCAUAACCAUUCACACUCUAUGUCUUUCAACUCUCAUCAACAUGUUCAUCAACAUGCGUGCACAUAGACAUGAAUGCACGCCCUUCUUUCAAGGCAGAUUGAU,0.563
CAGUACUACAAAGUACAGAAAUUCCUAGAAUAUAAUCAUUCUCACAGAAUAGAUACCAAGAAAAAGCUAUCUAUUAGGUUUCUAAUUCCAGGACCUAGAUAGACAAGUAC,0.513
GAUCCCCUCCAUUUAUUUGUUUAAUUUGGGUGGUGAUUCUGAAAUGAAUACUCUCUAGGAAAUGUGCAAUUUCAUGGUAAUUAUUUUUUAGAAAAGUCAAUUUAAUAAAU,0.689

# Block 4
# Target: Protein kinase C alpha type (PRKCA, Homo sapiens, UniProt P17252)
# Read-out: enzyme activity
# Mode: inhibitor
# Tested at: 0.5 µM
# Relative to: control
Compound,remaining activity [%]
COc1ccc(C(=O)Nc2sc3c(c2C(N)=O)CCCC3)cc1OC,96.6
CO[C@H]1C[C@@H]2CC[C@@H](C)[C@@](O)(O2)C(=O)C(=O)N2CCCC[C@H]2C(=O)O[C@H]([C@H](C)C[C@@H]2CC[C@@H](O)[C@H](OC)C2)CC(=O)[C@H](C)/C=C(\C)[C@@H](O)[C@@H](OC)C(=O)[C@H](C)C[C@H](C)/C=C/C=C/C=C/1C,108
Cn1sc(=O)n(Cc2ccccc2)c1=O,71.8
OCC(O)CCON=C1C(c2c(O)[nH]c3ccccc23)=Nc2ccccc21 (centres unmarked),101
